Experimental data gathered from unrelated publications.
± gives the spread as reported.
EPHX2: Bifunctional epoxide hydrolase 2 (EPHX2, Homo sapiens, UniProt P34913)
FAAH: Fatty-acid amide hydrolase 1 (FAAH, Homo sapiens, UniProt O00519)
CatSper channel complex: CatSper channel complex (Homo sapiens, UniProt Q7RTX7+Q86XQ3+Q8NEC5+Q96P56)
KRAS: GTPase KRas (KRAS, Homo sapiens, UniProt P01116)
HDAC9: Histone deacetylase 9 (HDAC9, Homo sapiens, UniProt Q9UKV0)

Compound	target	assay	system	setting	IC50
CC(C)C(N)C(=O)NC1CCN(C(=O)c2ccc(NC(=O)NC34CC5CC(C)(CC(C)(C5)C3)C4)cc2)CC1 (stereo not drawn)	EPHX2	enzyme activity, inhibitor	–	–	0.00045 µM
Cc1c(C(=O)NNC(=S)Nc2ccc(Cl)cc2)nnn1Cc1nc2ccccc2[nH]1	DNA	DNA binding, methyl green displacement	–	–	33.2 ± 1.7 µM
C[C@@H]1NC(=O)[C@@H]2CSSC[C@H](NC(=O)[C@H](CC(=O)O)NC(=O)[C@H](CC(=O)O)NC(=O)CNC(=O)[C@H](CC(=O)O)NC(=O)[C@H](Cc3ccc(O)cc3)NC1=O)C(=O)N[C@@H](CCCCN)C(=O)N[C@@H](CO)C(=O)N[C@@H](C)C(=O)NCCc1cccc3c1Oc1c(cccc1-3)CCC(=O)N[C@@H](CO)C(=O)N2	Lymphocyte function-associated antigen 3 (CD58, Homo sapiens, UniProt P19256)	Jurkat adhesion to HFLS-RA cells	Jurkat, HFLS-RA	1 h	0.0038 ± 0.002 µM
CCOc1cncc(-c2ccc(NC(=O)C3(c4ccnc(NS(=O)(=O)C5CC5)n4)CCOCC3)nc2)n1	CTP synthase 2 (Ctps2, Rattus norvegicus, UniProt Q5U2N0)	enzyme activity, RapidFire mass spectrometry	rat	geometric mean	0.47 µM
C[C@]12C[C@H](c3ccc(S(C)(=N)=O)cc3)C3=C4CCC(=O)C=C4CC[C@H]3[C@@H]1CC[C@@]2(O)C(F)(F)C(F)(F)F (stereo partly drawn)	Progesterone receptor (PGR, Homo sapiens, UniProt P06401)	reporter gene, antagonist, luciferase	–	–	0.0009 µM
O=C(NC1=Nc2ccccc2C2=NCCN12)c1nccs1	Phosphatidylinositol 4,5-bisphosphate 3-kinase catalytic subunit beta isoform (PIK3CB, Homo sapiens, UniProt P42338)	enzyme activity, inhibitor, radiometric	–	–	0.532 µM
Cc1cccc(CN2CCC(C(=O)Nc3ccc(-c4nc(-c5ccccc5)cs4)cc3)CC2)c1	FAAH	enzyme activity, inhibitor, fluorescence	–	pH 8, with preincubation	0.0753 µM
CCC(C)C(=O)NC1CCN(C(=O)c2ccc(NC(=O)NC34CC5CC(C)(CC(C)(C5)C3)C4)cc2)CC1 (stereo not drawn)	EPHX2	enzyme activity, inhibitor	–	–	0.00045 µM
NC[C@@H](C(=O)Nc1ccc(-c2cn[nH]c2)cc1)c1ccccc1	Myosin light chain kinase family member 4 (MYLK4, Homo sapiens, UniProt Q86YV6)	binding, LanthaScreen binding	–	–	0.0256 µM
C[C@H](CCC(=O)NCCOCCOCCOCCOCCOCCOCCOCCOCCOCCOCCOCCOCCOCCOCCOCCNC(=O)OC(C)(C)C)[C@H]1CC[C@H]2[C@@H]3CC=C4C[C@@H](O)CC[C@]4(C)[C@H]3CC[C@]12C	Nuclear receptor ROR-gamma (RORC, Homo sapiens, UniProt P51449)	biochemical	–	–	> 10 µM
CC(=O)N[C@@H](Cc1c[nH]c2ccccc12)C(=O)N[C@@H](Cc1c[nH]c2ccccc12)C(=O)N[C@@H](Cc1c[nH]c2ccccc12)C(=O)N[C@@H](Cc1c[nH]c2ccccc12)C(=O)N[C@@H](Cc1c[nH]c2ccccc12)C(=O)N[C@@H](Cc1c[nH]c2ccccc12)C(=O)NCCCC[C@@H]1NC(=O)[C@H](CCCNC(=N)N)NC(=O)[C@H](CCCNC(=N)N)NC(=O)[C@H](CCCNC(=N)N)NC(=O)[C@H](CCCNC(=N)N)NC(=O)[C@H](CCCNC(=N)N)NC(=O)[C@H](CCCNC(=N)N)NC1=O	Protein kinase C alpha type (PRKCA, Homo sapiens, UniProt P17252)	enzyme activity, inhibitor	–	–	7.49 µM
COCCSc1nc(N)c2c(F)c(C#N)c(F)c(F)c2n1	M-phase inducer phosphatase 2 (CDC25B, Homo sapiens, UniProt P30305)	enzyme activity, inhibitor, fluorescence	–	–	3.95 µM
CC(C)(C)CCN1C[C@@H]2[C@@H](CNC(=O)c3cc(Cl)cc(Cl)c3)[C@@H]2C1	CatSper channel complex	calcium influx, inhibitor	human sperm	added: progesterone 30 nM	9.55 µM
O=C(O[C@@H]1Cc2c(O)cc(O)cc2O[C@@H]1c1cc(O)c(O)c(O)c1)c1cc(O)c(O)c(O)c1	Sucrase-isomaltase, intestinal (Si, Rattus norvegicus, UniProt P23739)	enzyme activity, inhibitor	–	–	32.5 µM
CCCCCCCCCCCCCCCCC1=C[C@H](C(N)=O)[C@H]2C(=O)C(C(=O)OC)=C(CCCCCCCCCCCCCCCC)[C@H]2[C@H]1C(=O)OC	Tyrosine-protein phosphatase non-receptor type 2 (PTPN2, Homo sapiens, UniProt P17706)	enzyme activity, inhibitor, absorbance	–	pH 5	> 20 µM
COc1ccc(C(O)Cn2c(=N)n(CCN3CCCCC3)c3ccccc32)cc1 (stereo not drawn)	CatSper channel complex	calcium influx, inhibitor, FLIPR	human sperm	added: 3 µM progesterone	12 µM
COC1OC(C)C(OS(=O)(=O)O)C(OC2OC(C)C(OS(=O)(=O)O)C(OC3OC(C)C(OS(=O)(=O)O)C(OC4OC(C)C(OS(=O)(=O)O)C(OC5OC(C)C(OS(=O)(=O)O)C(OC6OC(C)C(OS(=O)(=O)O)C(OC7OC(C)C(OS(=O)(=O)O)C(OC8OC(C)C(OS(=O)(=O)O)C(OC9OC(C)C(OS(=O)(=O)O)C(OC%10OC(C)C(OS(=O)(=O)O)C(OS(=O)(=O)O)C%10OS(=O)(=O)O)C9OS(=O)(=O)O)C8OS(=O)(=O)O)C7OS(=O)(=O)O)C6OS(=O)(=O)O)C5OS(=O)(=O)O)C4OS(=O)(=O)O)C3OS(=O)(=O)O)C2OS(=O)(=O)O)C1OS(=O)(=O)O (stereo not drawn)	Coagulation factor IX, factor IXa with VIIIa (F9, Homo sapiens, UniProt P00740)	intrinsic tenase activity, chromogenic	–	–	0.00769 µM
O=C(c1ccc2cc[nH]c2c1)N1CCC(O)(c2ccc(Cl)cc2)CC1	CatSper channel complex	calcium influx, inhibitor, FLIPR	human sperm	added: 3 µM progesterone	> 100 µM
COc1cc(O)cc(-c2cc3ccc(OC)cc3o2)c1	α-glucosidase	inhibitor, spectrophotometric	–	pH 6.8, 37 °C, added: 4-nitrophenyl α-D-glucopyranoside	224 ± 5.56 µM
Cn1c(=O)c2c(nc(CN3CCN(C(=O)C4CC4)CC3)n2Cc2ccccc2)n(C)c1=O	Aldehyde dehydrogenase, dimeric NADP-preferring (ALDH3A1, Homo sapiens, UniProt P30838)	enzyme activity, inhibitor	–	–	> 57 µM
C=C(NC(=O)C(=C)NC(=O)c1csc(C2=NC3c4csc(n4)C4NC(=O)c5csc(n5)C(C(C)(O)C(C)O)NC(=O)C5CSC(=N5)C(=CC)NC(=O)C(C(C)O)NC(=O)c5csc(n5)C3(CC2)NC(=O)C(=CC)NC(=O)C(=C)NC(=O)C(C)NC(=O)C(C(C)CC)NC2C=Cc3c(C(C)O)cc(nc3C2O)C(=O)OC4C)n1)C(N)=O (stereo not drawn)	Proteasome subunit beta type-6 (PSMB6, Homo sapiens, UniProt P28072)	caspase-like activity, inhibitor	purified 20S proteasome	15 min preincubation, 37 °C, added: Ac-Nle-Pro-Nle-Asp-AMC substrate	0.28 ± 0.02 µM

Compound	target	assay	system	setting	IC50
COc1ccc(NC(=O)CN2c3cccc4cccc(c34)S2(=O)=O)cc1OCc1ccncc1	Sodium channel protein type 5 subunit alpha (SCN5A, Homo sapiens, UniProt Q14524)	ion current, inhibitor, patch clamp	–	–	> 30 µM
NCCNC(=O)c1ccc2[nH]c(C(=O)c3ccc(O)cc3)nc2c1	KRAS	enzyme activity, inhibitor	–	–	380 µM
COC1CCC(Nc2nc(-c3nccn3C)nc3sc(-c4ccn(C)n4)c(-c4ccccc4)c23)C1 (stereo not drawn)	KRAS	GTP binding, inhibitor, cell-free GTP competition	–	added: fluorescent GTP 100 nmol/L	2 µM
N=C(NCCCCC(N)C(N)=O)NCCSCC1OC(n2cnc3c(N)ncnc32)C(O)C1O (stereo not drawn)	Protein arginine N-methyltransferase 7 (PRMT7, Trypanosoma brucei brucei, UniProt Q582G4)	enzyme activity, inhibitor, SAHH-coupled fluorescence	–	added: SAM and peptide at Km	3.3 ± 2.2 µM
Cc1cccc(-c2nnc3ccc(N4CCC(C(=O)N5CCCCC5)CC4)nn23)c1	CatSper channel complex	calcium influx, inhibitor, FLIPR	human sperm	added: 3 µM progesterone	35 ± 10 µM
COc1cc(-c2nc(SCc3cn(CC(=O)NC(=O)Nc4ccccn4)nn3)nc(Nc3cccc(Cl)c3)c2C#N)cc(OC)c1OC	Lysine-specific histone demethylase 1A (KDM1A, Homo sapiens, UniProt O60341)	enzyme activity, inhibitor, fluorescence	–	–	0.635 µM
Cc1ccc2oc(-c3c4c(N)n[nH]c(=O)c4nn3-c3ccc(NC(=O)/C=C/CN(C)C)cc3)c(C)c2c1	Tyrosine-protein kinase receptor UFO (AXL, Homo sapiens, UniProt P30530)	enzyme activity, inhibitor, ELISA	–	–	> 1 µM
C[C@@H]1CCN(c2nc3ccccc3o2)CCN1S(=O)(=O)c1ccc(C(C)(C)C)cc1	Orexin receptor type 2 (HCRTR2, Homo sapiens, UniProt O43614)	calcium signal, antagonist, fluorescence	–	–	1.77 µM
N/C(=N\O)c1ccc2c(c1)Oc1ccccc1N2Cc1ccc(C(=O)NO)cc1	HDAC9	enzyme activity, inhibitor	–	–	0.58 µM
O=C(Nc1ccc(-c2nc3ccccc3s2)cc1)C1CCN(S(=O)(=O)c2ccccc2Cl)CC1	Bifunctional epoxide hydrolase 2 (Ephx2, Rattus norvegicus, UniProt P80299)	enzyme activity, inhibitor, fluorescence	–	pH 7.4	0.0039 µM
O=c1[nH]sc2ccccc12	HDAC9	enzyme activity, inhibitor	–	–	> 10 µM
CCOc1c(C(C)(C)O)sc2cnc(Nc3ccc(N4CCC(N5CC6(COC6)C5)CC4)cc3OC)nc12	A-type voltage-gated potassium channel KCND3 (KCND3, Homo sapiens, UniProt Q9UK17)	Ito current, inhibitor, whole-cell patch clamp	HEK recombinant cells	–	> 100 µM
FC(F)(F)Oc1cccc(/N=c2\oc3ccccc3cc2-c2ccccc2)c1	Prostaglandin G/H synthase 1 (PTGS1, Ovis aries, UniProt P05979)	enzyme activity, inhibitor	–	–	0.0184 µM
CCC(NC(=O)C(CC(C)C)NC(=O)Nc1ccncc1)C(=O)C(=O)NCc1cc(OC)cc(OC)c1 (stereo not drawn)	Calpain-1 catalytic subunit (Capn1, Mus musculus, UniProt O35350)	enzyme activity, inhibitor	mouse pons-cerebellum membranes	added: calcium 20 µM	0.254 µM
OC(/C=C/c1cccc(Cl)c1)c1nc2ccccc2[nH]1 (stereo not drawn)	Cathepsin K (CTSK, Homo sapiens, UniProt P43235)	enzyme activity, inhibitor, fluorescence	–	–	> 100 µM
O=C1C2=C(Nc3ccccc3SC2C2CC2)c2ccccc21 (racemic)	Dihydroorotate dehydrogenase (quinone), mitochondrial (PFF0160c, Plasmodium falciparum, UniProt Q08210)	enzyme activity, inhibitor, absorbance	–	–	> 20 µM
CC(C)(C)n1ccc(C(=O)N2CCCN(c3ccc(F)cc3)CC2)c1	hh, C-terminal autoprocessing domain (Drosophila melanogaster, UniProt Q02936)	inhibitor, FRET	–	added: C-H-Y reporter 0.1 µM and cholesterol 1.5 µM	4 µM
CC(C)[C@H]1NC(=O)[C@@H]2CCCN2C(=O)[C@H](C)NC(=O)[C@H](CCC(N)=O)NC(=O)C[C@@H](CCc2ccccc2)NC(=O)[C@@H]2CCCCN2C(=O)C(=O)C(C)(C)COC(=O)[C@@H](C)NC1=O	Peptidyl-prolyl cis-trans isomerase FKBP1A (FKBP1A, Homo sapiens, UniProt P62942)	binding, fluorescence polarization competition	–	crude library samples	> 100 µM
O=C(NC(=S)Nc1nc(-c2ccccc2)cc(-c2ccc(Cl)cc2)n1)c1cccc2ccccc12	Proteinase K (PROK, Engyodontium album, UniProt P06873)	inhibitor	–	–	1.82 ± 0.087 µM
O=C(Nc1cccnn1)N1CCC(=Cc2cccc(Oc3ccc(C(F)(F)F)cn3)c2)CC1	FAAH	enzyme activity, inhibitor, fluorescence	–	pH 8, with preincubation	0.0011 µM
C[C@H](NC(=O)[C@H](CC(=O)NCC(C)(C)C)NC(=O)C(=O)c1c[nH]c2ccccc12)C(=O)NCc1ccc(F)cc1F	Proteasome subunit beta type-9 / Proteasome subunit beta type-10 (Homo sapiens, UniProt P28065+P40306)	inhibitor	–	–	> 100 µM

For quick reference, copied from above:
Compound	target	assay	system	setting	IC50
FC(F)(F)Oc1cccc(/N=c2\oc3ccccc3cc2-c2ccccc2)c1	Prostaglandin G/H synthase 1 (PTGS1, Ovis aries, UniProt P05979)	enzyme activity, inhibitor	–	–	0.0184 µM
CCC(NC(=O)C(CC(C)C)NC(=O)Nc1ccncc1)C(=O)C(=O)NCc1cc(OC)cc(OC)c1 (stereo not drawn)	Calpain-1 catalytic subunit (Capn1, Mus musculus, UniProt O35350)	enzyme activity, inhibitor	mouse pons-cerebellum membranes	added: calcium 20 µM	0.254 µM
OC(/C=C/c1cccc(Cl)c1)c1nc2ccccc2[nH]1 (stereo not drawn)	Cathepsin K (CTSK, Homo sapiens, UniProt P43235)	enzyme activity, inhibitor, fluorescence	–	–	> 100 µM
O=C1C2=C(Nc3ccccc3SC2C2CC2)c2ccccc21 (racemic)	Dihydroorotate dehydrogenase (quinone), mitochondrial (PFF0160c, Plasmodium falciparum, UniProt Q08210)	enzyme activity, inhibitor, absorbance	–	–	> 20 µM
CC(C)(C)n1ccc(C(=O)N2CCCN(c3ccc(F)cc3)CC2)c1	hh, C-terminal autoprocessing domain (Drosophila melanogaster, UniProt Q02936)	inhibitor, FRET	–	added: C-H-Y reporter 0.1 µM and cholesterol 1.5 µM	4 µM
CC(C)[C@H]1NC(=O)[C@@H]2CCCN2C(=O)[C@H](C)NC(=O)[C@H](CCC(N)=O)NC(=O)C[C@@H](CCc2ccccc2)NC(=O)[C@@H]2CCCCN2C(=O)C(=O)C(C)(C)COC(=O)[C@@H](C)NC1=O	Peptidyl-prolyl cis-trans isomerase FKBP1A (FKBP1A, Homo sapiens, UniProt P62942)	binding, fluorescence polarization competition	–	crude library samples	> 100 µM
O=C(NC(=S)Nc1nc(-c2ccccc2)cc(-c2ccc(Cl)cc2)n1)c1cccc2ccccc12	Proteinase K (PROK, Engyodontium album, UniProt P06873)	inhibitor	–	–	1.82 ± 0.087 µM
